{"data": "Results pooled from the literature", "note": "Each line is one published result; not all experiments were run side by side. Numbers after ± are the reported error."}
{"SMILES": "O=C([O-])c1cccc(CN(CCN(Cc2cn(Cc3ccccc3)nn2)Cc2cccc(C(=O)[O-])n2)Cc2cn(Cc3ccccc3)nn2)n1.[64Cu+2]", "test system": "healthy athymic nude mice, kidney", "setting": "intravenous, 4 h", "tissue uptake [%ID/g]": 6.98}
{"SMILES": "CCCC[C@H](NC(=O)CNC(=O)CNC(=O)CN1CCN(CC(=O)O)CCN(CC(=O)O)CCN(CC(=O)O)CC1)C(=O)N[C@H]1CC(=O)NCCCC[C@@H](C(N)=O)NC(=O)[C@H](Cc2c[nH]c3ccccc23)NC(=O)[C@H](CCCNC(=N)N)NC(=O)[C@@H](Cc2ccccc2)NC(=O)[C@H](Cc2c[nH]cn2)NC1=O [gallium-67 labelled]", "test system": "female C57 mice, B16/F1 melanoma, spleen", "setting": "intravenous, 0.037 MBq, 24 h", "tissue uptake [%ID/g]": "0.52 ± 0.16"}
{"SMILES": "O=C([O-])CN1CCN(CC(=O)[O-])CCN(CC(=O)NCCc2ccc3c(c2)C2C=CCC2C(c2cc4c(cc2Br)OCO4)N3)CCN(CC(=O)[O-])CC1.[111In+3] (centres unmarked)", "test system": "mice with Hec50 tumour xenograft, kidneys", "setting": "2 h, together with: G-1 5 µg blocking", "tissue uptake [%ID/g]": "1 ± 0.16"}
{"SMILES": "NC12CNCCNCC(NCc3ccc(CNC(=O)CCCC(=O)NCc4ccc(-c5nncnn5)cc4)cc3)(CNCCNC1)CNCCNC2.[64Cu+2]", "test system": "athymic nude mice SW1222 xenograft, blood", "setting": "4 h post injection, 48 h accumulation interval, together with: huA33-TCO pretargeting", "tissue uptake [%ID/g]": "1.78 ± 0.28"}
{"SMILES": "CN1C(=O)[C@@H](Cc2ccc(O)c(I)c2)NC(=O)CNC(=O)[C@H](Cc2ccc3ccccc3c2)NC(=O)[C@H](CCCNC(=N)N)NC(=O)[C@H]1CCCNC(=O)c1ccc(CNC(=O)CN2CCN(CC(=O)O)CCN(CC(=O)O)CCN(CC(=O)O)CC2)cc1 [lutetium-177 labelled]", "assay": "item: 177Lu radioactivity", "test system": "female CB-17 SCID mice, Daudi xenograft, heart", "setting": "intravenous, 0.16 nmol per mouse, 48 h", "tissue uptake [%ID/g]": "0.11 ± 0.01"}
{"SMILES": "CCCC[C@H](NC(=O)CNC(=O)CNC(=O)CN1CCN(CC(=O)O)CCN(CC(=O)O)CC1)C(=O)N[C@H]1CC(=O)NCCCC[C@@H](C(N)=O)NC(=O)[C@H](Cc2c[nH]c3ccccc23)NC(=O)[C@H](CCCNC(=N)N)NC(=O)[C@@H](Cc2ccccc2)NC(=O)[C@H](Cc2c[nH]cn2)NC1=O [gallium-67 labelled]", "test system": "female C57 mice, B16/F1 melanoma, lung", "setting": "intravenous, 0.037 MBq, 4 h", "tissue uptake [%ID/g]": "0.3 ± 0.1"}
{"SMILES": "CCCC[C@@H]1NC(=O)[C@@H](NC(=O)[C@H](CCC(=O)O)NC(=O)CNC(=O)CN2CCN(CC(=O)O)CCN(CC(=O)O)CCN(CC(=O)O)CC2)CCCCNC(=O)C[C@@H](C(N)=O)NC(=O)[C@H](C(C)C)NC(=O)[C@@H]2CCCN2C(=O)[C@H](CCCNC(=N)N)NC(=O)CNC(=O)[C@H](Cc2c[nH]c3ccccc23)NC(=O)[C@H](CCCNC(=N)N)NC(=O)[C@@H](Cc2ccccc2)NC(=O)[C@H](Cc2c[nH]cn2)NC(=O)[C@H](CCC(=O)O)NC1=O [gallium-67 labelled]", "test system": "C57 mice, B16/F10 lung metastases, stomach", "setting": "intravenous, 0.037 MBq/mouse, 4 h", "tissue uptake [%ID/g]": "0.18 ± 0.13"}
{"SMILES": "O=C([O-])CN1CCN(CC(=O)[O-])CCN(CC(=O)[O-])CCN(CC(=O)[O-])CC1.[64Cu+2]", "test system": "healthy athymic nude mice, spleen", "setting": "intravenous, 4 h", "tissue uptake [%ID/g]": 0.69}
{"note": "Excerpt of the above:"}
{"SMILES": "CCCC[C@H](NC(=O)CNC(=O)CNC(=O)CN1CCN(CC(=O)O)CCN(CC(=O)O)CC1)C(=O)N[C@H]1CC(=O)NCCCC[C@@H](C(N)=O)NC(=O)[C@H](Cc2c[nH]c3ccccc23)NC(=O)[C@H](CCCNC(=N)N)NC(=O)[C@@H](Cc2ccccc2)NC(=O)[C@H](Cc2c[nH]cn2)NC1=O [gallium-67 labelled]", "test system": "female C57 mice, B16/F1 melanoma, lung", "setting": "intravenous, 0.037 MBq, 4 h", "tissue uptake [%ID/g]": "0.3 ± 0.1"}
